Results from different studies.
Compare with care: the assays were run in different laboratories. Numbers after ± are the reported error.

SMILES | cell line | assay | setting | IC50
CC(=O)Oc1ccc(/C=C/C(=O)Nc2nc(=O)n([C@@H]3O[C@H](C)[C@@H](OC(C)=O)[C@H]3OC(C)=O)cc2F)cc1 | BxPC-3 | cell viability, MTT | 72 h | 13.6 ± 2.48 µM
CCOC(=O)C1=CN([C@@H]2O[C@H](CO)[C@@H](O)[C@H]2O)C=CC1 | CAPAN-1 | cell growth or viability, CCK-8 |  | 46.7 µM
COCCN1CCN(c2ccc(Oc3ccc(F)cc3F)c(-c3cn(C)c(=O)c4[nH]ccc34)c2)S1(=O)=O | Light II cells | GLI reporter gene, inhibitor | Hedgehog pathway | 0.0261 ± 0.00517 µM
C[C@]12CC/C(=N\OCCN3CCCC3)C=C1CCC1C2CC[C@]2(C)/C(=C/c3ccccn3)CCC12 (stereo partly shown) | G-361 | cell growth or viability, resazurin | 72 h | 8.9 µM
CCNC(=O)OCc1c(COC(=O)NCC)c(-c2ccc(OC)cc2)n2c1Cc1ccccc1-2 | CL1-5 | cell growth or viability, resazurin | 72 h | 26.5 µM
COC(=O)[C@H]1[C@H]2C[C@H]3O[C@@]4(CCN3C[C@H]2C[C@@H](OC(=O)c2cc(OC)c(OC)c(OC)c2)[C@@H]1OC)C(=O)Nc1cc(OC)c(-c2ccc(C)cc2)cc14 | CAPAN-1 | cell growth or viability, crystal violet | 72 h | 22.2 µM
Nc1cccc[n+]1Cc1cccc(C[n+]2ccccc2N)c1 | 3T3-L1 | cell viability, MTT | 72 h | 56.87 ± 0.24 µM
C(=N\Nc1nc(-c2ccccn2)nc2ccccc12)/c1ccccc1 | HCC4017 | cell growth or viability, MTS | 96 h | 1.35 µM
COc1c(C)c(OC(=O)c2ccccc2)c(C)c(OC(=O)c2ccccc2)c1C(=O)/C=C/c1ccccc1 | KKU-M213 | cell growth or viability, SRB | 72 h | 31.6 µM
CCC(C(=O)O)C1CCC(C)C(C(C)C(O)C(C)C(=O)C(CC)C2OC3(C=CC(NCc4cn(CCCCSC(C)=O)nn4)C4(CCC(C)(C5CCC(O)(CC)C(C)O5)O4)O3)C(C)CC2C)O1 (stereo not shown) | HMLER CD24high/CD44low | cell viability, CellTiter-Blue | 72 h | 2.42 ± 0.2 µM
N=C(N/N=C/c1cncnc1)N/N=C/c1cncnc1 | IMR-90 | cell growth or viability, crystal violet | 72 h | 95.6 µM
COc1ccc2c(C)nc(Nc3nc(O)cc(-c4ccccc4)n3)nc2c1 | LDR | cell viability, MTS | 4 days | 2.4 µM
CC(C)(C)/C=C(\C#N)C(=O)Nc1cccc(Oc2nc(Nc3ccc(N4CCN(C(=O)CNc5cccc6c5C(=O)N(C5CCC(=O)NC5=O)C6=O)CC4)cc3)nc3ccoc23)c1 (stereo not shown) | MINO | cell growth or viability |  | ~0.01 µM
CC(C)(C)C(=O)Nc1ccc2[nH]c(CN3CCC(N(CCCN4CCOCC4)CC4OC(n5cnc6c(N)ncnc65)C(O)C4O)CC3)nc2c1 (stereo not shown) | H460 R231Q | cell proliferation, CCK-8 | 72 h | 6.18 ± 0.55 µM
CC(C)Cc1ccc(C(C)C(=O)[O][Pt]([NH2])([NH2])([Cl])([Cl])[O]C(=O)CCCc2ccccc2)cc1 (stereo not shown) | PSN1 3D spheroids |  |  | 3.63 ± 0.53 µM
COc1cc2c(cc1/C(C)=N/N)CCC1C(C)(C)c3nc(C)ncc3C[C@]21C (mixture of isomers) | TM3 | cell growth or viability, SRB | 24 h | > 100 µM
CCN(CC)Cn1nc(-c2ccccc2)cc1-c1ccccc1 | 3T3-L1 | cell growth or viability, MTT |  | 113 µg/mL

SMILES | cell line | assay | setting | IC50
O=C(NN1C(=O)c2ccccc2NC1c1ccc([N+](=O)[O-])o1)c1ccc([N+](=O)[O-])cc1 (stereo not shown) | HCC4017 | cell growth or viability, MTS | 96 h | > 50 µM
O=c1sn(Cc2ccccc2)c(=O)n1C1CC1 | A 172 | cell growth or viability | 72 h | 22.3 µM
CO[C@@H]1[C@@H](O[C@@H]2O[C@H](C)[C@@H](O[C@H]3C[C@@](C)(O)[C@@H](O)[C@H](C)O3)[C@H](N(C)C)[C@H]2O)[C@@H](CC=O)C[C@@H](C)[C@@H](O[C@H]2CC[C@H](N(C)C)[C@@H](C)O2)/C=C/C=C/C[C@@H](C)OC(=O)C[C@H]1OC(=O)c1ccc(C(C)(C)C)cc1 | HGC-27 | cell growth or viability, CCK-8 | 72 h | 7.97 µM
Cc1cc(O)cc2c1O[C@](C)(CCC[C@H](C)CCC[C@H](C)CCCC(C)C)CC2 | RPMI-7951 | cell growth or viability, MTT | 24 h | 5.69 µM
CCCCCC(=O)O[C@H]1[C@H](C)O[C@@H](O[C@H]2[C@H](N(C)C)[C@@H](O)[C@H](O[C@H]3[C@@H](CC=O)C[C@@H](C)[C@@H](O[C@H]4CC[C@H](N(C)C)[C@@H](C)O4)/C=C/C=C/C[C@@H](C)OC(=O)C[C@@H](O)[C@@H]3OC)O[C@@H]2C)C[C@@]1(C)O | HGC-27 | cell growth or viability, CCK-8 | 72 h | 5.23 µM
CCOc1cc(C(=O)Nc2ccc(Cl)c(-c3nc4ccccc4[nH]3)c2)cc(OCC)c1OCC | NIH3T3-Gli-Luc | Hedgehog signalling, Gli-luciferase reporter | with: Shh-conditioned medium | 0.18 ± 0.03 µM
O=[N+]([O-])C(=C\Nc1ccccc1O)/C=N/c1ccccc1O | LDR | cell viability, MTS | 4 days | 44 µM
CCCCc1ccc(C(=O)O[C@@H]2CC(=O)O[C@H](C)C/C=C/C=C/[C@H](O[C@H]3CC[C@H](N(C)C)[C@@H](C)O3)[C@H](C)C[C@H](CC=O)[C@H](O[C@@H]3O[C@H](C)[C@@H](O[C@H]4C[C@@](C)(O)[C@@H](O)[C@H](C)O4)[C@H](N(C)C)[C@H]3O)[C@H]2OC)cc1 | HGC-27 | cell growth or viability, CCK-8 | 72 h | 0.92 µM
Fc1ccc(-c2cn(CSc3ccccc3)nn2)c(F)c1 | SJSA-1 | cell growth or viability, MTS | 72 h | > 100 µM
CCCCC(CC)CNC(=N)NC(=N)NCCC (stereo not shown) | NCI-H1299 | cell growth or viability, SRB | 72 h | 10.1 µM
CC(=O)[O-].Nc1ccc(C([O-])=NN=Cc2ccc(OCC(=O)Nc3ccc(Cl)cc3)cc2)cc1.O.O.O.[Ni+2] | WISH | cell growth or viability, MTT | 24 h | 18.3 µg/mL
CC(C)c1cccc(C(C)C)c1-n1c(Cl)c(Cl)n(-c2c(C(C)C)cccc2C(C)C)c1=[Se].[Cl][Ag] | A-431 | cell growth or viability, MTT | 72 h | 1.8 µM
Cc1ccc(C(=O)C2Sc3nnc(-n4nc(C)cc4C)n3NC2c2ccc(Cl)cc2)cc1 (racemic) | CAPAN-1 | cell growth or viability, imaging | 72 h | > 100 µM
CC(=O)O[C@@H]1C[C@H]2C(C)(C)[C@H](O)CC[C@]2(C)[C@H]2CC[C@]34C[C@]3(CC[C@H]4[C@@H](C)C[C@@H](O)[C@H](O)C(C)(C)O)[C@@]21C | fibroblasts | cytotoxicity, MTT |  | > 30 µM
C[O][Pt-2]([NH3+])([NH3+])([Cl])([Cl])[O]C(=O)CCC(=O)OCCO | CH1 | cell growth or viability, MTT | 96 h | 3.2 µM
COCC/N=C(\S)N/N=C(\C)c1ccccc1O | LDR | cell viability, MTS | 4 days | 3.6 µM
O=C(O[C@@H]1Cc2c(O)cc(O)cc2O[C@@H]1c1cc(O)c(O)c(O)c1)c1cc(O)c(O)c(O)c1 | A-431 | cell growth or viability, CCK-8 | 24 h | 53.8 µM

A few entries again:
SMILES | cell line | assay | setting | IC50
CC(=O)O[C@@H]1C[C@H]2C(C)(C)[C@H](O)CC[C@]2(C)[C@H]2CC[C@]34C[C@]3(CC[C@H]4[C@@H](C)C[C@@H](O)[C@H](O)C(C)(C)O)[C@@]21C | fibroblasts | cytotoxicity, MTT |  | > 30 µM
COc1ccc2c(C)nc(Nc3nc(O)cc(-c4ccccc4)n3)nc2c1 | LDR | cell viability, MTS | 4 days | 2.4 µM
N=C(N/N=C/c1cncnc1)N/N=C/c1cncnc1 | IMR-90 | cell growth or viability, crystal violet | 72 h | 95.6 µM
CC(C)c1cccc(C(C)C)c1-n1c(Cl)c(Cl)n(-c2c(C(C)C)cccc2C(C)C)c1=[Se].[Cl][Ag] | A-431 | cell growth or viability, MTT | 72 h | 1.8 µM
CCNC(=O)OCc1c(COC(=O)NCC)c(-c2ccc(OC)cc2)n2c1Cc1ccccc1-2 | CL1-5 | cell growth or viability, resazurin | 72 h | 26.5 µM
